Measured values of several laboratories.
Every numbered part comes from another study and shows a few of its results, in no order. Several values in a cell are separate wells, animals, samples, runs or records.
Chain of UniProt P28223 (whole entry, looked up): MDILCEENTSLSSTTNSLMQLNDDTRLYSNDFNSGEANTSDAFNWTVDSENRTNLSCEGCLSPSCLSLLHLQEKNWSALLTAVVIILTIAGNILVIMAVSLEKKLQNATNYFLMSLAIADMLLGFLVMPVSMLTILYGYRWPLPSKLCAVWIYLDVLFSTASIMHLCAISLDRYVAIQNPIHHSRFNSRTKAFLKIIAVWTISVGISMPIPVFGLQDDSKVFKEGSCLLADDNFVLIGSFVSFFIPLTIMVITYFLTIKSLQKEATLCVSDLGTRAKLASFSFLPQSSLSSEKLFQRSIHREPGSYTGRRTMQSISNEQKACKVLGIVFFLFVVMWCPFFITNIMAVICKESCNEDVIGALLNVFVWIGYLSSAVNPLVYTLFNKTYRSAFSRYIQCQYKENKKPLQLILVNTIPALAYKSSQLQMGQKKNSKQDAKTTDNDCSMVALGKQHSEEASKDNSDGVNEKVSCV

Block 1
Structure (SMILES): COc1ccc(-c2c(Nc3ccccn3)[nH]c3c(C4=CCCCC4)c(-c4ccccc4)nn3c2=O)cc1
Species: human
Medium: plasma
Route: oral
method	dose	time	AUC(0-t)
LC-MS/MS non-compartmental	200 mg twice daily	cycle 1	234 µg·h/mL
LC-MS/MS non-compartmental	50 mg once daily	cycle 1	32.3 µg·h/mL
LC-MS/MS	50 mg once daily	–	33 µg·h/mL and 34.9 µg·h/mL
–	200 mg twice daily	–	243 µg·h/mL and 255 µg·h/mL

Block 2
Compound: CC(C)(C(=O)O)[C@H](NC(=O)Cc1cccc(I)c1)c1ccc2oc(=O)[nH]c2c1
Method: Incucyte 3D growth
Concentration: 30 µM
Direction: higher = more growth
cell line	time	spheroid area
PC-9	66 h	5.04e+08 a.u. and 5.08e+08 a.u. and 4.85e+08 a.u. and 5.11e+08 a.u. and 4.91e+08 a.u.
A375	228.52 h	1.58e+08 a.u. and 1.84e+08 a.u. and 1.79e+08 a.u. and 1.63e+08 a.u. and 1.52e+08 a.u. and 1.69e+08 a.u.
NCI-H358	120 h	5.24e+06 a.u. and 4.26e+06 a.u. and 4.35e+06 a.u.
PC-9	84 h	6.36e+08 a.u. and 6.34e+08 a.u. and 6.31e+08 a.u. and 6.09e+08 a.u. and 6.25e+08 a.u. and 6.32e+08 a.u.
A375	168.52 h	1.23e+08 a.u. and 1.14e+08 a.u. and 1.05e+08 a.u. and 1.32e+08 a.u. and 1.24e+08 a.u. and 1.33e+08 a.u.
PC-9	240 h	1.91e+09 a.u. and 1.88e+09 a.u. and 1.89e+09 a.u. and 1.87e+09 a.u. and 1.81e+09 a.u. and 1.84e+09 a.u.
PC-9	210 h	1.74e+09 a.u. and 1.7e+09 a.u. and 1.75e+09 a.u. and 1.81e+09 a.u. and 1.78e+09 a.u. and 1.82e+09 a.u.

Mixed results
Molecule	tested on	test	system	conditions	how to read	endpoint	result
O=C1NC(c2ccccn2)Sc2ccccc21 (centres unmarked)	5-hydroxytryptamine receptor 2A (HTR2A, Homo sapiens, UniProt P28223)	ligand displacement	–	10 µM	–	inhibition	-12.3%
CC(C)(C)c1cnc(CSc2cnc(NC(=O)C3CCN(CCCCCSc4cccc5c4CN(C4CCC(=O)NC4=O)C5=O)CC3)s2)o1 (centres unmarked)	HuT78	MS proteomics, item: P36578 (RPL4)	–	concentration not given, 6 h	baseline: 0 h	log2 fold change	0.788
SVDSDHLGY	HLA class I histocompatibility antigen, C alpha chain, allele C*04:01 (Homo sapiens, UniProt P10321)	peptide-MHC binding	peptide	concentration not given	–	binding	inactive
